{"data": "Published values of several laboratories", "cell line": "SF-539", "note": "Values joined by “and” are separate records of one study, mostly repeats; a detail may differ."}
{"Compound": "Cc1n[nH]c2nc(-c3ccc(Cl)cc3)c3c(NC(=O)c4ccccc4)nnc-3n12", "assay": "SRB", "conditions": "10 µM, NCI60 single-dose screen", "how to read": "reference: untreated", "measurement": "cell growth", "value": "102%"}
{"Compound": "CCCCN1CCN(c2ccc3[nH]c(-c4ccc5[nH]c(-c6cc(OC)c(OC)c(OC)c6)nc5c4)nc3c2)CC1", "assay": "SRB", "conditions": "10 µM, 48 h", "measurement": "growth percent", "value": "61.1%"}
{"Compound": "Cc1cc(C)n(C(=S)[S][Au][PH](CCCCCC[PH]([Au][S]C(=S)n2nc(C)cc2C)(c2ccccc2)c2ccccc2)(c2ccccc2)c2ccccc2)n1", "assay": "cell growth, NCI-60 screen", "conditions": "CNS cancer", "measurement": "log10 TGI", "value": -4.44}
{"Compound": "CCCCN1CCN(c2ccc3[nH]c(-c4ccc5[nH]c(-c6ccc(OCC)c(OCC)c6)nc5c4)nc3c2)CC1", "assay": "SRB", "conditions": "10 µM, 48 h", "measurement": "growth percent", "value": "-93.7%"}
{"Compound": "O=C(Nc1nnc2[nH]c(=S)[nH]c(-c3ccc(Cl)cc3)c1-2)c1ccccc1", "assay": "SRB", "conditions": "10 µM, NCI60 single-dose screen", "how to read": "reference: untreated", "measurement": "cell growth", "value": "94.7%"}
{"Compound": "C#C[C@@]1(O)[C@@H](CO)O[C@@H](n2cc(F)c3c(N)ncnc32)[C@@H]1O", "assay": "SRB", "conditions": "NCI-60 screen", "measurement": "TGI", "value": "5290 nM"}
{"Compound": "O=C1NC(=NCc2cccs2)S/C1=C\\c1ccc2ncccc2c1", "assay": "MTS", "conditions": "NCI60 panel", "measurement": "IC50", "value": "2550 nM"}
{"Compound": "Cn1cncc1C1=CN(c2ncnc3[nH]cnc23)CCS1", "conditions": "CNS cancer", "measurement": "TGI", "value": "40700 nM"}
{"Compound": "CCCCN1CCN(c2ccc3[nH]c(-c4ccc5[nH]c(-c6ccc(C(F)(F)F)cc6)nc5c4)nc3c2)CC1", "assay": "SRB", "conditions": "10 µM, 48 h", "measurement": "growth percent", "value": "-92.8%"}
{"Compound": "O=C(Nc1nnc2n3c(Cc4ccccc4)n[nH]c3nc(-c3ccc(Cl)cc3)c1-2)c1ccccc1", "assay": "SRB", "conditions": "10 µM, NCI60 single-dose screen", "how to read": "reference: untreated", "measurement": "cell growth", "value": "96.8%"}
{"Compound": "C#C[C@@]1(O)[C@@H](CO)O[C@@H](n2cc(Br)c3c(N)ncnc32)[C@@H]1O", "assay": "SRB", "conditions": "NCI-60 screen", "measurement": "TGI", "value": "2040 nM and 1140 nM"}
{"Compound": "Cc1cc(-c2ccccc2)n(-c2nc(-c3ccc(Cl)cc3)c3c(NC(=O)c4ccccc4)nnc-3[nH]2)n1", "assay": "SRB", "conditions": "10 µM, NCI60 single-dose screen", "how to read": "reference: untreated", "measurement": "cell growth", "value": "94.7%"}
{"Compound": "CCCN1CCN(c2ccc3[nH]c(-c4ccc5[nH]c(-c6ccc(OCC)c(OCC)c6)nc5c4)nc3c2)CC1", "assay": "SRB", "conditions": "10 µM, 48 h", "measurement": "growth percent", "value": "-87.9%"}
{"Compound": "CCN(CC)c1ccc(C=NNC(=O)CSc2nc3ccccc3c(=O)n2Cc2ccc(S(N)(=O)=O)cc2)c(O)c1", "assay": "NCI five-dose screen", "measurement": "TGI", "value": "> 100000 nM"}
{"Compound": "CCOC(=O)CSc1nc(-c2ccc(Cl)cc2)c2c(NC(=O)c3ccccc3)nnc-2[nH]1", "assay": "SRB", "conditions": "10 µM, NCI60 single-dose screen", "how to read": "reference: untreated", "measurement": "cell growth", "value": "94%"}
{"note": "A few entries again:"}
{"Compound": "O=C(Nc1nnc2[nH]c(=S)[nH]c(-c3ccc(Cl)cc3)c1-2)c1ccccc1", "assay": "SRB", "conditions": "10 µM, NCI60 single-dose screen", "how to read": "reference: untreated", "measurement": "cell growth", "value": "94.7%"}
